Measured values collected from several papers.
Parts stem from different laboratories: compare values within a part only.

Study 1 — technique: RNA Bind-n-Seq; molecule type: RNA; matrix: in vitro; tested at: 200 nM; notes: whole 134-nt RNA, ends assumed; together with: 150 mM LiCl; relative to: input library; reading: higher = stronger binding; measurement: log2 enrichment; each molecule: 7-deaza-guanosine replaces G
Target: Fragile X messenger ribonucleoprotein 1, C-terminal low-complexity region (Fmr1, Mus musculus, UniProt P35922)
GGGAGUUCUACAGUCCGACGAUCUCAAGUCCUGUGCUACACAUCGUAUGUACCGAAUCGGAGGUUUUUUUGGAAAGGAAAGUAUUAUGUUACGCCGUUCGGAUCUGCACUUCCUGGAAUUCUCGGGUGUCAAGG: -1.33
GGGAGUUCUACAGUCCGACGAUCACCAUGCAGUUGGGCAUCUUUGGGAAGUGGGGCAAGGGGGGGAUAGGGAGGGGGGUAACACUUUGGGAACAGGUGGUCCCAGGUCGUUUCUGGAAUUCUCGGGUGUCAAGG: 1.26
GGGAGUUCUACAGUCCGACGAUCCCUGUGCUACACAUCGUAUGUACCGAAUCGGGGUUUUUUUGGGGAGGGGAAAAAAAGGGGAAAGUAUUAUGUUACGCCGUUCGGAUCUGCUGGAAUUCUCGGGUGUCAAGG: -0.637
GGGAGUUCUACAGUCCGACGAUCCCUGUGCUACACAUCGUAUGUACCGAAUCGGGUUUUUGGGUUUUUUUGGGAAAAAAAGGGAAAGUAUUAUGUUACGCCGUUCGGAUCUGCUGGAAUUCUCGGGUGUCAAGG: -1.71
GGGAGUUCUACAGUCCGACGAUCGUCCUGUGCUACACAUCGUAUGUACCGAAUCGGAAAAAAAGGAAAAAAAGGUUUUUGGAAAGUAUUAUGUUACGCCGUUCGGAUCUGCACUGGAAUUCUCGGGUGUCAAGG: -2.05
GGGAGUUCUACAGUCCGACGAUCCCUCAAGUCCUGUGCUACACAUCGUAUGUACCGAAUCGGUGGGUGGGUGGGGAAAGUAUUAUGUUACGCCGUUCGGAUCUGCACUUCCAGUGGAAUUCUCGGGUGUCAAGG: -0.0698
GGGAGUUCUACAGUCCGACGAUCAGUCCUGUGCUACACAUCGUAUGUACCGAAUCGGGGCCCCGGGGCCCCGGCCCCGGGAAAGUAUUAUGUUACGCCGUUCGGAUCUGCACUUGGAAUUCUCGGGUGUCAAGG: -0.631
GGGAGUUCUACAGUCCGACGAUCACCAUGCAGGUGGGCAUCUUUGGGAAGUGGGGCAAGGGGGGGAUAGGGAGGGAAAUAACACUUUGGGAACAGGUGGUCCCAGGUCGUUUCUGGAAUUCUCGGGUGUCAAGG: 0.76
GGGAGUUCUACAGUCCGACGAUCAAGUCCUGUGCUACACAUCGUAUGUACCGAAUCGGAAAAAAAGGUUUGGAAAAAGGAAAGUAUUAUGUUACGCCGUUCGGAUCUGCACUUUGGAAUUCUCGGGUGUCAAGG: -2.89
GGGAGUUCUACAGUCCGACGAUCGCAGGAAGUAAAAACAAAUGGAAAUGCUUCGGAUAGUGGCAGGGGUGGGGGUUGCUAAGGAAAGGGUGGGAUGGGAGUUGGUAAAGAGUUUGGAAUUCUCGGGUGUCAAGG: 1.22
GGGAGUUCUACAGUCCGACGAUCAGUCCUGUGCUACACAUCGUAUGUACCGAAUCGGUUUUGGGGUUUUGGGGUUUUGGGGAAAGUAUUAUGUUACGCCGUUCGGAUCUGCACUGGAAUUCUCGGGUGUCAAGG: -0.314

Study 2 — technique: RNA Bind-n-Seq; molecule type: RNA; matrix: in vitro; tested at: 365 nM; relative to: no-protein control; reading: higher = stronger binding; measurement: RBNS enrichment (R)
Target: RNA binding protein fox-1 homolog 2, RRM domain, GST-SBP tag (RBFOX2, Homo sapiens, UniProt O43251-10, residues 100-194)
Notes: natural RNA segment, single round, ends assumed
Target sequence (chain): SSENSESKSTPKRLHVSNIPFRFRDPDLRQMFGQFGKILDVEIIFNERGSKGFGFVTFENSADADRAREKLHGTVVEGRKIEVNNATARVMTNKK
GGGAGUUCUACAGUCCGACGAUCGAGCCGUCACCAUAAGUAAAUCAAGUCCCUUCCUCCCAGUCACACGGCUGAGCGCAGACGGCUUGUUUUAAAAAGAUGAUGAACAUGACAGUAUUUUGUUUUGCUUUGAUUGGAAUUCUCGGGUGCCAA: 0.334
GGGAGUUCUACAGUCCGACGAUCCAGUUUUAUAUGAAAGAUUAGAAGCCUGGAAUAAUCAGGCUUUUUAAAUGAUGUAAUUCCCACUGUAAUAGCAUAGGGAUUUUGGAAGCAGCUGCUGGUGGCUUGGGACAUGGAAUUCUCGGGUGCCAA: 0.409
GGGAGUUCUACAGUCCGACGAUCCCUCCGUAAACUCAGGAAGUGUCAGGUGAUUUCCUAGGGAGAGGUUCCCAGUCCCAGCAGGCAGAAUGCCCAAAACCAGGAGCACGAAGGCCUGUCAUCCAUGGGGCCAUUGGAAUUCUCGGGUGCCAA: 0.611
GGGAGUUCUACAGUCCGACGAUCCUCCCCUGCCCCUCCCCGCUUCCUGACCUCUGAAGAGGUUGGGAAGUGACCAUUUGGAUGUCUGGGCCCUGCCAAGGCGACAGGGAGGGUCAGAGGGAGGCCGGCUGCUUUGGAAUUCUCGGGUGCCAA: 0.256
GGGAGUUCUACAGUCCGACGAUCAAUAUGGUCCAAUUGCUUUUCUUUUUAACAUGACAAACAAUUUUAAAAGAGACUAAGGAACAAACACUAUUGCGCCGAAUGCCAUAACACUGAGUUGUACAAAUUGUGAUUGGAAUUCUCGGGUGCCAA: 0.34
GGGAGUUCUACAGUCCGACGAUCAUGGUUUGACUUUUUAAUUCUAGUACUUACAACCUUUAAUCUUGGUAACUGUGGCCAAAUAUCUAUUGUUAUACAUAUCUCUGAAUGUGCUUGUAAGUGGUUAAAUAAUUUGGAAUUCUCGGGUGCCAA: 1.16
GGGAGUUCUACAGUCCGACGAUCGCCCACACUACAGGCCCGGAGCUUUGGGGCUGGGUACAUGUGCCAAGCCUCCCUCCCUGGGCUACAGGGCCUCCGGUCCUGCUCCCAUACCCAGGUUUGGUUCCUCUAGGUGGAAUUCUCGGGUGCCAA: 0.266
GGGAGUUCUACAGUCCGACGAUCGCCUUCAAGAGUCUUCUUAAUGUUCUCCCACAGGGCUCUUUCUGAGUGCCCUAUAAUCCCUCCCCCCUUUCUAAUUCAAUAUCUGGAGUAAGGAAUUCUUGGGUAGGGCAUGGAAUUCUCGGGUGCCAA: 0.374
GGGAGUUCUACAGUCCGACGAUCGCAUUAUAGCUUUUGAAGAAAGGCCAGUGAUCCAGCAAAGGGGGAAAAAUAUGCAUUUCACCCCACAUGACUAGGAAUCCACAUCAGAAUGAUACAGAGUUAGCAGGUUUUGGAAUUCUCGGGUGCCAA: 0.594
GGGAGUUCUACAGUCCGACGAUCCUGGACGACCUAAGAGACGGACUGGAAAUGAAGUGGAAUUCAGAAGAAAAUCUCAGUUUUGAUGAUUACGUUGCUUUUUUGUCCAGUAGUUUGGUUUAUAUACAUAAAUAUGGAAUUCUCGGGUGCCAA: 0.907
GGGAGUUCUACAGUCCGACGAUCGGGAAAGAAUGGUAUUGUAGAAAAACCCAAGAAAUGACCACGUGGUCAGUUUCAUGGUGAUGGCUACUGUGUACUGUGUAGGUUACCUGGGUCAAGACUGGUCCAGCUUAUGGAAUUCUCGGGUGCCAA: 1.56
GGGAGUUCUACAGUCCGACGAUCAGUUUACCGUAACUUUUCUUAAACUUUUUAGUGCCGUUUCUAGUAUAUUCCUGUAAAUGUCAGUUACUGAAAAUGAGUCCAAUGUAAGUAGUUUAGCUUGUUUAUUGCAAUGGAAUUCUCGGGUGCCAA: 1.52

Study 3 — technique: protein-binding microarray; molecule type: hairpin DNA; matrix: in vitro; tested at: not given; relative to: not given; reading: higher = stronger binding; measurement: median fluorescence
Target: Runt-related transcription factor 3, Runt domain (RUNX3, Homo sapiens, UniProt Q13761, residues 53-186)
Sequence of UniProt Q13761 (53-186, looked up): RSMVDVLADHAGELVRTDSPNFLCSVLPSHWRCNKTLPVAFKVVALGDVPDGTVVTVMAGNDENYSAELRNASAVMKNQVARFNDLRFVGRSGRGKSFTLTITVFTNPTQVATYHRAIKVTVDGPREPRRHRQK
Notes: whole hairpin DNA, median over replicate spots
CTCAGTTCTGTCGGCTGGACTCCTGTCCAGCCGACAGAACTGAGACACTC: 4430 a.u.
GAGGCCCAACCTCAACAGCCTCCTGGCTGTTGAGGTTGGGCCTCACACTC: 4690 a.u.
GAGGCCCAACCGGAACAGCCTCCTGGCTGTTCCGGTTGGGCCTCACACTC: 4940 a.u.
CTCAGTTCTCGGGGCTGGACTCCTGTCCAGCCCCGAGAACTGAGACACTC (5mC at 10): 4440 a.u.
GAGGCCTGTTGTGGATGGCCTCCTGGCCATCCACAACAGGCCTCACACTC: 4190 a.u.
GAGGCCTGTCGCGGTCGGCCTCCTGGCCGACCGCGACAGGCCTCACACTC (5mC at 28): 6030 a.u.
GAGGCCCAACCGCAATAGCCTCCTGGCTATTGCGGTTGGGCCTCACACTC: 9400 a.u.
GAGGCCCAACCCCAACAGCCTCCTGGCTGTTGGGGTTGGGCCTCACACTC: 5020 a.u.
GAGGCCTGTCGCGCGTGGCCTCCTGGCCACGCGCGACAGGCCTCACACTC: 5380 a.u.
GAGGCCCAACCGCAACCGCCTCCTGGCGGTTGCGGTTGGGCCTCACACTC (5mC at 17): 10100 a.u.
GAGGCCTGTCGCGGCTGGCCTCCTGGCCAGCCGCGACAGGCCTCACACTC (5mC at 15): 5470 a.u.
GAGGCCTGTTGCGGTTGGCCTCCTGGCCAACCGCAACAGGCCTCACACTC (5mC at 34): 8810 a.u.
GAGGCCTGTTGCGGCGGGCCTCCTGGCCCGCCGCAACAGGCCTCACACTC (5mC at 15): 6040 a.u.

Study 4 — technique: protein-binding microarray; molecule type: double-stranded DNA, one strand shown; matrix: in vitro; tested at: 250 nM; notes: 60-bp whole probe; together with: salmon DNA 0.4 mg/ml; relative to: random background probes; reading: higher = stronger binding; measurement: log fluorescence; shared flanks, not repeated: GCCTAGCAC … GTCTTGATTCGCTTGACGCTGCTG
Target: Interferon regulatory factor 7, full length, phosphomimetic (IRF7, Homo sapiens, UniProt Q92985, residues 1-503, S101K/S471D/S472D/S475D/S476D/S477D/S483D/S484D/S487D)
Construct (chain): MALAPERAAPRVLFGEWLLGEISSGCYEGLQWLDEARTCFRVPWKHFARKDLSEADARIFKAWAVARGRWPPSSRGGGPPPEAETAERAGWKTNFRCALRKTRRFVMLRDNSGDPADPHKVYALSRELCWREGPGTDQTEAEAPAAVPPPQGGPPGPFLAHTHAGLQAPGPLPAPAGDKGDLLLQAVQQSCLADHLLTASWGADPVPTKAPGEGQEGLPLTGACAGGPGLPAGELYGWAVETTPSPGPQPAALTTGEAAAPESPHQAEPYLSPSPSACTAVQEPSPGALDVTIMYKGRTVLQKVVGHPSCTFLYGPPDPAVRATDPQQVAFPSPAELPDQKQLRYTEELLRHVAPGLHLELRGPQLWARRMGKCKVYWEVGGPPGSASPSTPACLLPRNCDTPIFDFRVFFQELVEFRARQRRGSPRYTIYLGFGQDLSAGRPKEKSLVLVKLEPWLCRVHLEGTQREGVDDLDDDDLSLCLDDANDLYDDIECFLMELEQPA
TCAACTTCTGTTTTTGCACTGTGCTAG: 0.268 z-score
TTAAGTCTCGGTCTCGGTTAGTGCTAG: 2.94 z-score
TTAGGACTGCTTCTGCTTTAGTGCTAG: 0.0474 z-score
GACGGTTCCGGTTTCGGGCCGTGCTAG: 5.5 z-score
GACGATTTCAGTCTCGAGAAGTGCTAG: 0.423 z-score
GACGATTTCGGGTATCGACACGTGCTA: 0.608 z-score
TTAGGACTACTTATCCTTTAGTGCTAG: 0.517 z-score
AGTATGTTCCTTATTTAAGAGTGCTAG: 1.32 z-score
CATTTTAGTAGTTTCTAAAAGTGCTAG: 2.43 z-score
TTAGGTCTCCTTATCCTGTAGTGCTAG: 0.381 z-score
TTAGGTTTCCTTTCACTTTAGTGCTAG: 6.36 z-score
TTAGGTATCGGACTTGGTTAGTGCTAG: 0.387 z-score
TCAGGTGTCTTTTGTGGAACTGTGCTA: -0.6 z-score
CTAGGTTCCCTTTTCCTTTAGTGCTAG: 4.44 z-score
ACGTCTTCATGTTTTTTTCTGTGCTAG: 0.621 z-score
GACGATTCCGGTTTCGGGACGTGCTAG: 4.22 z-score
GACGGACTGGACTATTGGGACGTGCTA: -0.874 z-score
GACGATTTCACTTTCGAGACGTGCTAG: 1.97 z-score
CCCTATTTAAGGCTAGGCACGTGCTAG: 1.59 z-score
GAGGGACTGCTACTGCTGACGTGCTAG: -1.03 z-score
GTGGGAAACCGGAAAGGCAAAGTGCTA: -0.185 z-score

Excerpt of the above (study 4):
TTAGGTATCGGACTTGGTTAGTGCTAG: 0.387 z-score
TCAGGTGTCTTTTGTGGAACTGTGCTA: -0.6 z-score
CTAGGTTCCCTTTTCCTTTAGTGCTAG: 4.44 z-score
ACGTCTTCATGTTTTTTTCTGTGCTAG: 0.621 z-score
